Results of several laboratories.
Every numbered part comes from another study and shows a few of its results, in no order. Several values in a cell are separate wells, animals, samples, runs or records.
Chain of UniProt O15530 (whole entry, looked up): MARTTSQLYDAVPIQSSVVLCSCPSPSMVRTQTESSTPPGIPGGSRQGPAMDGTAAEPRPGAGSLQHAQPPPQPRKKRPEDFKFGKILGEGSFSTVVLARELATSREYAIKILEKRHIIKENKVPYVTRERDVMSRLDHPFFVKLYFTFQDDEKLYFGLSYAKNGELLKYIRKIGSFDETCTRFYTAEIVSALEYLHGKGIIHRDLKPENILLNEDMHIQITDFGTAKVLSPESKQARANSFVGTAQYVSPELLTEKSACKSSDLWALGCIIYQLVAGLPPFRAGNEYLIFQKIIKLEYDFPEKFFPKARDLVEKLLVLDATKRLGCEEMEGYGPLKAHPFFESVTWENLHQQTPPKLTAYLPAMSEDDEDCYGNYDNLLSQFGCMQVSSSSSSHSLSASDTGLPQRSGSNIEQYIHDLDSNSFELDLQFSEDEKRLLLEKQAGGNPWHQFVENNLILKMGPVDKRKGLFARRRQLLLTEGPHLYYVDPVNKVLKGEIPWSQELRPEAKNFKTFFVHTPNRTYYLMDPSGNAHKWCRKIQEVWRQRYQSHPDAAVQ
Chain of UniProt P54646 (whole entry, looked up): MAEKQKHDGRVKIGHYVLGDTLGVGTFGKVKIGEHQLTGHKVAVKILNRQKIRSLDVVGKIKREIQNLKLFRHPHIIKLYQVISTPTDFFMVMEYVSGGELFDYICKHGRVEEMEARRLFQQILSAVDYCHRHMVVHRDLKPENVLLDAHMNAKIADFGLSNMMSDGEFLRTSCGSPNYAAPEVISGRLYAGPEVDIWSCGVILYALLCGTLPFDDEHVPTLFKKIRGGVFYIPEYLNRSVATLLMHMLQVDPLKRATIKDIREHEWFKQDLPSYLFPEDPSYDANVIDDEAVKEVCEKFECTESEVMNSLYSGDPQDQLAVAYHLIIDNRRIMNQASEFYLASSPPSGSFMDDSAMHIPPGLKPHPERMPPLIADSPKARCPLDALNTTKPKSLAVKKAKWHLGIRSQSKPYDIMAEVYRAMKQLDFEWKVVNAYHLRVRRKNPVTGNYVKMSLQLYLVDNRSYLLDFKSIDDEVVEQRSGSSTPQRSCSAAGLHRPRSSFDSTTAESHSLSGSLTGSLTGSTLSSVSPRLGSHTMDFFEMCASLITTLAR
Chain of UniProt Q9BYT3 (whole entry, looked up): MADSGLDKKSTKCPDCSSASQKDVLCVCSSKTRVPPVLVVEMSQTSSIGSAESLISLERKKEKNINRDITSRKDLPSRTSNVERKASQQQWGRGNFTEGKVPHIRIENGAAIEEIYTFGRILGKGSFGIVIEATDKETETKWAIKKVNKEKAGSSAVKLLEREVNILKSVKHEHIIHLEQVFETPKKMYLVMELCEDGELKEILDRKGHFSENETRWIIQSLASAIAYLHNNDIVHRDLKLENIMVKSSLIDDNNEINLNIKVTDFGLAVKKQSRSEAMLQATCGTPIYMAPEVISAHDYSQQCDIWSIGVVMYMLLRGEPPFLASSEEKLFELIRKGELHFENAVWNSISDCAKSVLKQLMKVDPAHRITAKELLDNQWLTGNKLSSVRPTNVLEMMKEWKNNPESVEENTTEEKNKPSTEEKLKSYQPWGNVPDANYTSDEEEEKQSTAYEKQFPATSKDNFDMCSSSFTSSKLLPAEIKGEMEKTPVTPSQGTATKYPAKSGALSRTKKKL
Chain of UniProt Q15139 (whole entry, looked up): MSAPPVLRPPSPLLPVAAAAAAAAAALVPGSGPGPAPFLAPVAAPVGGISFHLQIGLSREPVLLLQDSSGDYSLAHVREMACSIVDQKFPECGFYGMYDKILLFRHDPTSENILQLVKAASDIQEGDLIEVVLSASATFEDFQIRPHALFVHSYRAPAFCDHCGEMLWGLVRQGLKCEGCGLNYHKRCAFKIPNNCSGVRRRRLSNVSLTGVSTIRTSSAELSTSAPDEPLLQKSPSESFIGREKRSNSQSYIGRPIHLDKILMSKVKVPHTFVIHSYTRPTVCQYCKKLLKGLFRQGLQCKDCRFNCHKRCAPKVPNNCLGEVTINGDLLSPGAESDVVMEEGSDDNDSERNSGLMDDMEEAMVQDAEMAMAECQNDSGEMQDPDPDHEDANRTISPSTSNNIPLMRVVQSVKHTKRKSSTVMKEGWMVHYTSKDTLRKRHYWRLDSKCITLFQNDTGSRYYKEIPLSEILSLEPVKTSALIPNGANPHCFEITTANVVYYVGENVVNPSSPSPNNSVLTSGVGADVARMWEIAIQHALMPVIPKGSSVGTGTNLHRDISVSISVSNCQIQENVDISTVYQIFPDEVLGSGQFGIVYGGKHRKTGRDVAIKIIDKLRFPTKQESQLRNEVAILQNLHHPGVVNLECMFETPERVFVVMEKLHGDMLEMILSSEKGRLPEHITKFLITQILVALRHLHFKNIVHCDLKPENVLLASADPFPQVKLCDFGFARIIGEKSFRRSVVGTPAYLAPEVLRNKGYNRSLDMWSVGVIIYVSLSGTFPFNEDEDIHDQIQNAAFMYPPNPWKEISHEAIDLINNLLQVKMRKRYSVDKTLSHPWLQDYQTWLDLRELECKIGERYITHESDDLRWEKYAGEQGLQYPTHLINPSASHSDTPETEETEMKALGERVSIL
Chain of UniProt Q9UKI8 (whole entry, looked up): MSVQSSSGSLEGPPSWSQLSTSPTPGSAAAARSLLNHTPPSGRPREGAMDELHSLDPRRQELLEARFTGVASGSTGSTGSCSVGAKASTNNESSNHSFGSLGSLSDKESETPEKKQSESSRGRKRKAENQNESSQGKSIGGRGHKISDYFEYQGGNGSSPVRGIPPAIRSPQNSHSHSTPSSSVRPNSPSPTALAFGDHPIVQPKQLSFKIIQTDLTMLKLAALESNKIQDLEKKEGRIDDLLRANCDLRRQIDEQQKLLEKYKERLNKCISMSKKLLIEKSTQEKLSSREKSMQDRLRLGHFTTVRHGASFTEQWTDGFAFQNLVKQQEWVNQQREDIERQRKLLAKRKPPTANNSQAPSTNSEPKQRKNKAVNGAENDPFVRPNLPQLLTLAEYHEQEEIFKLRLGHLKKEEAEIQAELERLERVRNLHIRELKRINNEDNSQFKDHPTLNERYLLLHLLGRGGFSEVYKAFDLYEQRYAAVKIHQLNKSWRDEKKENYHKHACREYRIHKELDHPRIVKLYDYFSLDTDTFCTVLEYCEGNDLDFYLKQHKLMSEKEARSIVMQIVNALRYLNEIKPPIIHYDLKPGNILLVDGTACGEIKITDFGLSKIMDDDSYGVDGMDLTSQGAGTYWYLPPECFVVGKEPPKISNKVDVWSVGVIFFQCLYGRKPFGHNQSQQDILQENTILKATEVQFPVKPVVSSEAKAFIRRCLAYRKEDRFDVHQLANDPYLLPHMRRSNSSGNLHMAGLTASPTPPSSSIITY
Chain of UniProt O15264 (whole entry, looked up): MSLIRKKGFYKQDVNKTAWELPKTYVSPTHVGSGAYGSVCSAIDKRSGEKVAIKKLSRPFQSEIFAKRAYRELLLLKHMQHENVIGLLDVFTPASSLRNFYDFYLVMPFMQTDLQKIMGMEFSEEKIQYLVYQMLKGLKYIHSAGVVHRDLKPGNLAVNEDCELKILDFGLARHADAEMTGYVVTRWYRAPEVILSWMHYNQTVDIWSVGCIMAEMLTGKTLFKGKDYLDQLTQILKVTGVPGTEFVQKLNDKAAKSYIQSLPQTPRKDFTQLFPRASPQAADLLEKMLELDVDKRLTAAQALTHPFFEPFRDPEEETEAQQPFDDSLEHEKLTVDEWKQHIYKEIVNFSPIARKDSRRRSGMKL

Block 1
Target: Serine/threonine-protein kinase D3 (PRKD3, Homo sapiens, UniProt O94806)
Chain of UniProt O94806 (whole entry, looked up): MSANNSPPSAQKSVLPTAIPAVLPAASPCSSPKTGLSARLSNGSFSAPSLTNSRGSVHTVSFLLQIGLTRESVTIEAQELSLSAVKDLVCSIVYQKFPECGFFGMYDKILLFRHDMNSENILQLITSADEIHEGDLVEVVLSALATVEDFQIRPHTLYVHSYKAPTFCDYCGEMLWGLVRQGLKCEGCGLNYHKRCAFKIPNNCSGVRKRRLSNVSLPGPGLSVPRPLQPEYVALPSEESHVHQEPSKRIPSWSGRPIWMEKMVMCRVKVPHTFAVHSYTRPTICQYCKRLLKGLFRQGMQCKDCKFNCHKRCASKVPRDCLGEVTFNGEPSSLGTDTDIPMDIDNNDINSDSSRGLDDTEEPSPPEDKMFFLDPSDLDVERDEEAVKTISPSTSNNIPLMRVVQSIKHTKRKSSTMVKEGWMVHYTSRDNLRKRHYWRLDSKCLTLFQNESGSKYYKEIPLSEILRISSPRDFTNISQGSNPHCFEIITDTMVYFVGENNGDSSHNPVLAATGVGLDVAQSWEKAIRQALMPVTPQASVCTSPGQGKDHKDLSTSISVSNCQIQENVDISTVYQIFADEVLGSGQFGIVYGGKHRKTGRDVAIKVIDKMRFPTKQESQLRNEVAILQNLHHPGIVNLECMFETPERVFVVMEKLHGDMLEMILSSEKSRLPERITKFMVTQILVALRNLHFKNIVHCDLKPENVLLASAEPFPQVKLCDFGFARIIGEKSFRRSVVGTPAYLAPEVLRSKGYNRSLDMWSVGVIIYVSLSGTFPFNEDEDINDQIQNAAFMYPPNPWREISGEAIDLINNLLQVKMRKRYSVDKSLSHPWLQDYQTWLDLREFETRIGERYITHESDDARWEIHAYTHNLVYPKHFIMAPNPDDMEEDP
Observed: enzyme activity
Mode: inhibitor
Concentration: 0.5 µM
Baseline: control
With COc1cc2ncnc(Nc3ccc(O)c(Br)c3)c2cc1OC the remaining activity was 72.8%.
The remaining activity of O=C1C(Cl)=C(N2C(=O)CCC2=O)C(=O)c2ccccc21 is reported as 88.2%.
For Cc1cc2ncc(-c3ccccc3)nc2cc1C, the remaining activity was 92.2%.
The remaining activity of CN(C)C[C@H]1CCn2c(c(C3=C(c4cn(C)c5ccccc45)C(=O)NC3=O)c3ccccc32)C1 is reported as 93.6%.
CCN(CC)CCNC(=O)c1c(C)[nH]c(/C=C2\C(=O)Nc3ccc(Cl)cc32)c1C has a remaining activity of 8.04%.
N#Cc1c(NC(=O)c2cccc3ccccc23)sc2c1CCCC2 has a remaining activity of 97.7%.

Block 2
Target: Calcium/calmodulin-dependent protein kinase type II subunit alpha (CAMK2A, Homo sapiens, UniProt Q9UQM7)
Chain of UniProt Q9UQM7 (whole entry, looked up): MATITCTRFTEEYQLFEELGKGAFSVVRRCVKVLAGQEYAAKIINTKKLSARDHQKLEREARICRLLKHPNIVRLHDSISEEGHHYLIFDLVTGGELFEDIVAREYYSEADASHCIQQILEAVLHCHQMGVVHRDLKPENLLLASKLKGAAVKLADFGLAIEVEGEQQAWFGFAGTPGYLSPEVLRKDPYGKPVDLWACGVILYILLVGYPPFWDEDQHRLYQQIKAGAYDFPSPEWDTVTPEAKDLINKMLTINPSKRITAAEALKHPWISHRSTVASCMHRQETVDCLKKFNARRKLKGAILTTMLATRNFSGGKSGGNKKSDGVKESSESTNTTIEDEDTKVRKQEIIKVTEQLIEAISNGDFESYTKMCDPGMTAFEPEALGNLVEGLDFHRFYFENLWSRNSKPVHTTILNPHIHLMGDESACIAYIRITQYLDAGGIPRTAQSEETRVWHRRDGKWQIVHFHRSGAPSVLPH
Observed: enzyme activity
Mode: inhibitor
Concentration: 10 µM
With CNCCCC1c2ccccc2C=Cc2ccccc21 the inhibition was 3%.
COc1ccc(-c2oc3c(CCC(C)(C)O)c(O[C@@H]4O[C@H](CO)[C@@H](O)[C@H](O)[C@H]4O)cc(O)c3c(=O)c2O)cc1 gave an inhibition of -19%.
Cc1cn([C@H]2C[C@H](O)[C@@H](CO)O2)c(=O)nc1N gave an inhibition of -10%.
For CN(C)c1cc(CNCC(C)(C)C)c(O)c2c1C[C@H]1C[C@H]3[C@H](N(C)C)C(=O)C(C(N)=O)=C(O)[C@@]3(O)C(=O)C1=C2O, the inhibition was -6%.
O=c1cc(-c2ccc(O)cc2)oc2cc(O)c([C@@H]3O[C@H](CO)[C@@H](O)[C@H](O)[C@H]3O)c(O)c12 gave an inhibition of 19%.

Block 3
Structure (SMILES): FC(F)(F)c1ccc2c(c1)nc(-c1cccnc1)n2C1CC1
Observed: cell-free assay
Method: competition with immobilised ligand
Concentration: 1 µM
For STK25 (Homo sapiens, UniProt O00506): remaining binding read 99%.
It gave 100% for remaining binding (PRKD1 (Homo sapiens, UniProt Q15139)).
The remaining binding was 100% (RIOK2 (Homo sapiens, UniProt Q9BVS4)).
TLK1 (Homo sapiens, UniProt Q9UKI8) — remaining binding: 100%.
Tyrosine-protein kinase ABL1, phosphorylated (ABL1, Homo sapiens, UniProt P00519, T315I) — remaining binding: 100%.
It gave 100% for remaining binding (MAPK13 (Homo sapiens, UniProt O15264)).
The remaining binding was 81% (Tyrosine-protein kinase ABL1, non-phosphorylated (ABL1, Homo sapiens, UniProt P00519, Q252H)).
For PDPK1 (Homo sapiens, UniProt O15530): remaining binding read 94%.
For Tyrosine-protein kinase ABL1, phosphorylated (ABL1, Homo sapiens, UniProt P00519, F317L): remaining binding read 100%.
For FYN (Homo sapiens, UniProt P06241): remaining binding read 100%.
For NUAK2 (Homo sapiens, UniProt Q9H093): remaining binding read 100%.
MST1R (Homo sapiens, UniProt Q04912) — remaining binding: 100%.
STK33 (Homo sapiens, UniProt Q9BYT3) — remaining binding: 100%.
PRKAA2 (Homo sapiens, UniProt P54646) — remaining binding: 100%.

Block 4
Cell line: mouse MPNST tumor cells
Method: high-content immunofluorescence imaging
Measured: nuclear SOX9
Concentration: 10 µM
Time: 12 h
Setting: mean of 2 replicates
Baseline: DMSO control
Reading: higher = more nuclear SOX9
Under “nuclear SOX9 intensity”, Cc1nc2ccccn2c(=O)c1CCN1CCC(C(=O)c2ccc(F)cc2)CC1 is recorded as 98.9 % of DMSO.
CCOC(=O)c1c(-c2ccccc2)oc2ccc(Oc3c([N+](=O)[O-])ncn3C)cc12: “nuclear SOX9 intensity” 79.4 % of DMSO.
NC1(C(=O)N[C@@H](CCO)c2ccc(Cl)cc2)CCN(c2ncnc3[nH]ccc23)CC1: “nuclear SOX9 intensity” 109 % of DMSO.
CC(=O)O[C@H]1C(=O)[C@@]2(C)[C@H]([C@H](OC(=O)c3ccccc3)[C@]3(O)C[C@H](OC(=O)[C@H](O)[C@@H](NC(=O)c4ccccc4)c4ccccc4)C(C)=C1C3(C)C)[C@]1(OC(C)=O)CO[C@@H]1C[C@@H]2O — result for “nuclear SOX9 intensity”: 137 % of DMSO and 171 % of DMSO.
Nc1nc2[nH]cc(CCc3ccc(C(=O)N[C@@H](CCC(=O)O)C(=O)O)cc3)c2c(=O)[nH]1: “nuclear SOX9 intensity” 139 % of DMSO.
C[N+]1(C)CCC(=C(c2ccccc2)c2ccccc2)CC1 — result for “nuclear SOX9 intensity”: 102 % of DMSO.
O=C(OCC(O)CO)c1ccccc1Nc1ccnc2cc(Cl)ccc12 (centres unmarked): “nuclear SOX9 intensity” 117 % of DMSO.
